Experimental data collected from several papers.
Compare with care: the assays were run in different laboratories.
Organism: Bacillus subtilis

Nc1nc2ccc(Oc3ccc4nc(N)sc4c3)cc2s1  MIC (broth microdilution; 3610; 20 h, 37 °C): 49 to 64 µg/mL
CC[C@H](C)[C@H](N)C1=N[C@H](C(=O)N[C@@H](CC(C)C)C(=O)N[C@H](CCC(=O)O)C(=O)N[C@H](C(=O)N[C@H]2CCCCNC(=O)[C@H](CC(N)=O)NC(=O)[C@@H](CC(=O)O)NC(=O)[C@H](Cc3c[nH]cn3)NC(=O)[C@@H](Cc3ccccc3)NC(=O)[C@H]([C@@H](C)CC)NC(=O)[C@@H](CCCN)NC2=O)[C@@H](C)CC)CS1  MIC (168; 18 h, 37 °C, added: ZnSO4 0.3 mM): 32 µg/mL
CC1C=CC=CC(C)C2C=CC3CC(C)(O)C(F)C(C)C3C2C(=O)C(Cl)(Cl)C(=O)C(C)C(=O)O1 (centres unmarked)  MIC (microbial growth, broth dilution): 0.2 µg/mL
COc1ccccc1C(=O)c1c(-n2c(C(=O)c3ccccc3OC)cc(Cl)c2Cl)c(Cl)c(Cl)n1C  MIC (microbial growth, broth dilution; 168; 20 h): > 64 µg/mL
NC(=O)Nc1nc2cc(Br)ccc2[nH]c1=O  MIC (broth microdilution; 3610; 20 h, 37 °C): > 128 µg/mL
O=C(c1ccc[nH]1)c1ccccc1O  MIC (microbial growth, broth dilution; 168; 20 h): > 64 µg/mL
COc1ccccc1N1CCN(Cn2nc(C34CC5CC(CC(C5)C3)C4)n(-c3ccccc3)c2=S)CC1  MIC (two-fold dilution; IFO 3007; 24 h, 36 °C): 1 µg/mL
CCCCCCSCC1OC(OC2C(N)CC(N)C(OC3OC(CN)C(O)CC3N)C2O)C(O)C(N)C1O (centres unmarked)  MIC (168): 150 µg/mL
CC1(C)S[C@@H]2[C@H](NC(=O)[C@H](NC(=O)C3=C(O)C(c4ccccc4F)NC3=O)c3ccccc3)C(=O)N2[C@H]1C(=O)O (some centres unmarked)  MIC (microbial growth, broth dilution; ATCC23857): 1.56 µg/mL
CC1C=CC=CC(C)C2C=CC3CC(C)(O)C(Br)C(C)C3C2C(=O)C(Cl)(Cl)C(=O)C(C)C(=O)O1 (centres unmarked)  MIC (microbial growth, broth dilution): 0.05 µg/mL
C/C(=N\Nc1nc(-c2ccc(Cl)cc2)cs1)c1ccc2c(c1)sc1nc(=O)c(C#N)cn12  MIC (microbial growth, broth dilution): < 72 µg/mL
O=[N+]([O-])c1ccc(CSc2nnc(C34CC5CC(CC(C5)C3)C4)n2-c2ccccc2)cc1  MIC (two-fold dilution; IFO 3007; 24 h, 36 °C): 8 µg/mL
CC1C=CC=CC(C)C2C=CC3CC(C)(Cl)C(O)C(C)C3C2C(=O)C(Cl)(Cl)C(=O)C(C)C(=O)O1 (centres unmarked)  MIC (microbial growth, broth dilution): 0.1 µg/mL
C/C(=N\NC1=NC(=O)CS1)c1ccc2c(c1)sc1nc(=O)c(C#N)cn12  MIC (microbial growth, broth dilution): < 64 µg/mL
CN(C)C(=N)NC(=N)N.CN(C)C(=N)NC(=N)N.[Cu+2].[O-][Cl+3]([O-])([O-])[O-].[O-][Cl+3]([O-])([O-])[O-]  MIC (broth microdilution): 128 µg/mL
CC(C)CCCCCCCCCCCCc1cc(O)cc(O)c1  MIC (microbial growth, broth dilution; 168): 64 µg/mL
Cn1c(C23CC4CC(CC(C4)C2)C3)nn(CCN2CCCC2)c1=S  MIC (two-fold dilution; IFO 3007; 24 h, 36 °C): 4 µg/mL
Cn1c(Cl)c(Cl)c(-n2c(C(=O)c3ccccc3O)cc(Cl)c2Cl)c1C(=O)c1ccccc1O  MIC (microbial growth, broth dilution; 168; 20 h): > 64 µg/mL
O=C(O)c1ccc(-n2cc(/C=N/Nc3cccc(Cl)c3F)c(-c3ccc4ccccc4c3)n2)cc1  MIC (microbial growth; ATCC6623): 3.12 µg/mL
CC1C=CC=CC(C)C2C=CC3CC(C)(O)C(O)C(C)C3C2C(=O)C(Cl)(Cl)C(=O)C(C)C(=O)O1 (centres unmarked)  MIC (microbial growth, broth dilution): > 6.4 µg/mL
CCCCCCCCCCCCCCCCCCSCC1OC(OC2C(N)CC(N)C(OC3OC(CN)C(O)CC3N)C2O)C(O)C(N)C1O (centres unmarked)  MIC (168): 75 µg/mL
CC1=CC(C)=[N+]2C1=Cc1ccc(CCC(=O)NCCCn3cc(CCCCC(=O)Oc4ccccc4C(=O)c4cc(Cl)c(Cl)n4-c4c(C(=O)c5ccccc5O)[nH]c(Cl)c4Cl)nn3)n1[B-]2(F)F  MIC (microbial growth, broth dilution; 168; 20 h): 0.25 µg/mL
C[C@@H]1C(=O)O[C@@H](C)/C=C/C=C\[C@@H](C)[C@@H]2C=C[C@@H]3C[C@]4(C)O[C@@H]4[C@@H](C)[C@H]3[C@@H]2C(=O)C(Cl)(Cl)C1=O  MIC (microbial growth, broth dilution): 0.0125 µg/mL
CN(C)c1ccc2c(CC(=O)NCCCn3cc(CCCCC(=O)Oc4ccccc4C(=O)c4cc(Cl)c(Cl)n4-c4c(C(=O)c5ccccc5O)[nH]c(Cl)c4Cl)nn3)cc(=O)oc2c1  MIC (microbial growth, broth dilution; 168; 20 h): 1 µg/mL
CCN(CC)CCn1nc(C23CC4CC(CC(C4)C2)C3)n(C)c1=S  MIC (two-fold dilution; IFO 3007; 24 h, 36 °C): 16 µg/mL
COc1ccc(-c2csc(N/N=C(\C)c3ccc4c(c3)sc3nc(=O)c(C#N)cn34)n2)cc1  MIC (broth microdilution): < 47 µg/mL
Oc1c(Cl)cc(Cl)c2cccnc12  MIC (microbial growth, agar dilution; ATCC6633): 37.4 µM
C/C(=N\Nc1nc(C)cs1)c1ccc2c(c1)sc1nc(=O)c(C#N)cn12  MIC (microbial growth, broth dilution): < 61 µg/mL
CC(C)CCOC1C(C)C2C(C=CC3C(C)C=CC=CC(C)OC(=O)C(C)C(=O)C(Cl)(Cl)C(=O)C32)CC1(C)O (centres unmarked)  MIC (microbial growth, broth dilution): 0.8 µg/mL
CCCCCCCCCCCCC[C@@H](O)Cc1cc(O)cc(O)c1  MIC (microbial growth, broth dilution; 168): 16 µg/mL
CN(C)c1ccc2c(CC(=O)NCCCn3cc(CCCCC(=O)Oc4c(Br)cc(Br)cc4-c4[nH]c(Br)c(Br)c4Br)nn3)cc(=O)oc2c1  MIC (microbial growth, broth dilution; 168; 20 h): 0.25 µg/mL
CC1C=CC=CC(C)C2C=CC3CC(C)(O)C(O[N+](=O)[O-])C(C)C3C2C(=O)C(Cl)(Cl)C(=O)C(C)C(=O)O1 (centres unmarked)  MIC (microbial growth, broth dilution): 0.025 µg/mL
